Experimental data gathered from unrelated publications.
Compare with care: the assays were run in different laboratories.

Structure (SMILES)	assay	test system	conditions	endpoint	value
CC1(C)CCC(CN2CCN(c3ccc(C(=O)NS(=O)(=O)c4ccc(NCC5CCOCC5)c([N+](=O)[O-])c4)c(Oc4cnc5[nH]ccc5c4)c3)CC2)=C(c2ccc(Cl)cc2)C1	UPLC-MS/MS	human patients	oral, dose not given, steady state, range	trough concentration	51 to 6160 ng/mL
O=C1Nc2ccc(Cl)cc2[C@@](C#CC2CC2)(C(F)(F)F)O1		human, plasma	oral, 600 mg, day 29, median	trough plasma concentration	2260 ng/mL
NC(=O)N1c2ccccc2C=Cc2ccccc21		healthy human subjects, plasma	oral, dose not given, 12 h, twice daily, alone	trough concentration	5930 ng/mL
Cn1cncc1[C@@](N)(c1ccc(Cl)cc1)c1ccc2c(c1)c(-c1cccc(Cl)c1)cc(=O)n2C		human, plasma	oral, 300 mg/m^2, 12 h after first dose, median, second cohort	trough concentration	79 ng/mL
Cc1cnc(N2CC3(CCOCC3)C2)c(C(=O)Nc2ccc(C(=O)N3CCc4cc(C(=O)Nc5c(C)cccc5F)sc4-c4ccccc43)cc2)c1		human, nasal mucosal lining fluid	inhaled, 5 mg twice daily, 120 h	trough concentration	8430 ng/mL
COc1cc(Nc2ncc3c(n2)-c2ccc(Cl)cc2C(c2c(F)cccc2OC)=NC3)ccc1C(=O)O		human patients, plasma	oral, 40 mg, cycle 1 day 1, added: pembrolizumab	trough concentration (C12)	278 ng/mL
Cc1ccc(C)c(OCCCC(C)(C)C(=O)O)c1		human, plasma	oral, dose not given, day 15 predose, geometric mean	trough plasma concentration	1810 ng/mL
Cc1ccc([C@@H]2O[C@H](CO)[C@@H](O)[C@H](O)[C@H]2O)cc1Cc1ccc(-c2ccc(F)cc2)s1		human, maintenance hemodialysis patients	oral, 100 mg once daily, steady state, median	trough concentration	125 ng/mL
C[C@@H]1CCO[C@H]2Cn3cc(C(=O)NCc4ccc(F)cc4F)c(=O)c(O)c3C(=O)N12		human paediatric patients, weight sample C to under sample D kg, plasma	oral, 25 mg film-coated tablet, 24 h, steady state, geometric mean, population PK post-hoc, N 26	trough concentration (C24)	369 ng/mL
CC1(C)CC[C@]2(NC(=O)C(C)(F)F)CC[C@]3(C)[C@H](C(=O)C=C4[C@@]5(C)C=C(C#N)C(=O)C(C)(C)[C@@H]5CC[C@]43C)[C@@H]2C1		human, plasma	oral, 150 mg, day 21 predose, geometric mean	trough plasma concentration	30.3 ng/mL
N#Cc1ccc2c(c1)[C@H]1CCCN(C(=O)c3ccc4[nH]cnc4c3)[C@H]1C2		human, plasma	240 mg once daily, day 2	trough plasma concentration	2870 nmol/L
